Measurements gathered from unrelated publications.
Each line is one published result; not all experiments were run side by side. ± marks the error that the study gave.

CC[C@H](C)[C@H](NC(=O)[C@H](CCCCN)NC(=O)[C@@H](NC(=O)[C@H](CCC(N)=O)NC(=O)[C@@H](N)CCCNC(=N)N)[C@@H](C)CC)C(=O)N[C@@H](Cc1c[nH]c2ccccc12)C(=O)N[C@@H](Cc1ccccc1)C(=O)N[C@@H](CCC(N)=O)C(=O)N[C@@H](CC(N)=O)C(=O)N[C@@H](CCCNC(=N)N)C(=O)N[C@@H](CCCNC(=N)N)C(=O)N[C@@H](CCSC)C(=O)N[C@@H](CCCCN)C(=O)N[C@@H](Cc1c[nH]c2ccccc12)C(=O)N[C@@H](CCCCN)C(=O)N[C@@H](CCCCN)C(=O)N[C@@H](CO)C(=O)N[C@@H](Cc1c[nH]c2ccccc12)C(=O)N[C@H](C(=O)N[C@@H](Cc1c[nH]c2ccccc12)C(=O)N[C@@H](CCC(=O)O)C(=O)N[C@@H](CCCCN)C(=O)N[C@@H](CCCCN)C(=O)N[C@@H](CC(C)C)C(=O)N[C@@H](CCC(=O)O)C(=O)N[C@H](C(=O)N[C@@H](C)C(=O)N[C@H](C(=O)N[C@@H](CC(N)=O)C(=O)N[C@@H](CC(C)C)C(=O)N[C@@H](C)C(=O)N[C@@H](Cc1c[nH]c2ccccc12)C(=O)N[C@H](C(=O)N[C@@H](C)C(=O)NCC(=O)N[C@@H](CC(N)=O)C(=O)N[C@@H](CO)C(=O)N[C@@H](CC(N)=O)C(=O)N[C@@H](CCCCN)C(=O)N[C@@H](Cc1c[nH]c2ccccc12)C(=O)N[C@H](C(=O)N[C@@H](Cc1c[nH]c2ccccc12)C(=O)N[C@@H](CCCCN)C(=O)O)[C@@H](C)O)[C@@H](C)O)C(C)C)[C@@H](C)O)[C@@H](C)O
decrease in cellular ATP (CLL patient PBMCs; CellTiter-Glo; 1.5 µM, 5 min): 50%

COc1ccc([C@@H]2CC(=O)c3c(O)cc(O[C@@H]4O[C@H](CO[C@@H]5O[C@@H](C)[C@H](O)[C@@H](O)[C@H]5O)[C@@H](O)[C@H](O)[C@H]4O)cc3O2)cc1O
cell count (A549; trypan blue exclusion; 50 µg/mL, 72 h): 30400 ± 706

CC(=O)OC[C@H]1O[C@@H](Sc2sc(C(=O)c3ccc(Br)cc3)c(N)c2-c2nc3ccccc3s2)[C@H](OC(C)=O)[C@@H](OC(C)=O)[C@@H]1OC(C)=O
growth percent (786-0 renal cancer; SRB; 10 µM, 48 h): 105%

O=Cc1c(O)ccc2ccccc12
mRNA level (hCMEC/D3; qPCR, measured: KLF4; 50 µM, 12 h; relative to: control): ~6.5 fold

N=C(N/N=C/c1ccc2ccccc2c1)N/N=C/c1ccc2ccccc2c1
selectivity ratio (PANC-1; crystal violet; 72 h; relative to: IC50 IMR-90 over IC50 PANC-1): 1.1

CC(C)Cc1ccc(C(C)C(=O)[O][Pt]([NH2])([NH2])([Cl])([Cl])[O]C(=O)C(Cl)Cl)cc1 (stereo not shown)
depolarised mitochondria cells (PSN1; 1 µM, 24 h): 25 to 30%

CC/C=C\C/C=C\C/C=C\C/C=C\C/C=C\C/C=C\CCC(=O)Nc1ccn(C2OC(CO)C(O)C2(F)F)c(=O)n1 (stereo not shown)
TGI (HOP-92; NCI60 screen): 34.5 µM

CCC(C(=O)O)C1CCC(C)C(C(C)C(O)C(C)C(=O)C(CC)C2OC3(C=CC(NCc4cn(-c5ccc(C(C)=O)cc5)nn4)C4(CCC(C)(C5CCC(O)(CC)C(C)O5)O4)O3)C(C)CC2C)O1 (stereo not shown)
selectivity ratio (HMLER; cell proliferation; relative to: IC50 CD24high/CD44low over IC50 CD24low/CD44high): 18.5

O=C(N1CCCC1)n1cc(-c2ccc(-c3ccccc3)cc2)nn1
SILAC ratio (mouse T-cells; N-terminal labelling enrichment, measured: S100A6 N-terminal peptides; 1 nM, 6 h, protein median; relative to: DMSO): 1.07 ± 0.11

COc1cc(CNC(=O)C[C@H](C)CCC=C(C)C)ccc1OCc1cn(-c2cccc([N+](=O)[O-])c2)nn1
growth percent (TK-10; SRB; 10 µM, 48 h): 72.4%

CCC(=C(c1ccc(Cl)cc1)c1ccc(OCCCN(C)C)cc1)c1ccc(OC)cc1
alkaline phosphatase activity (Ishikawa; 1 µM, 72 h, unit not given; relative to: DMSO): 2.01 ± 0.55

COc1cc(CNC(=O)C[C@H](C)CCC=C(C)C)ccc1OCc1cn(-c2cccc(C(F)(F)F)c2)nn1
growth percent (SK-OV-3 ovarian cancer cells; SRB; 10 µM, 48 h): 89%

CC(C)c1c(-c2cccc3[nH]ccc23)[nH]c(C(=O)O)c1-c1c(Cl)ccc2[nH]ccc12
CD38-positive cells (TEX cells; concentration not given): 90%

COc1cc(CNC(=O)C[C@H](C)CCC=C(C)C)ccc1OCc1cn(-c2ccc(Br)cc2)nn1
growth percent (TK-10; SRB; 10 µM, 48 h): 109%

COc1cc(/C=C/c2cc(/C=C/c3ccc(O)c(OC)c3)n(-c3ccc([N+](=O)[O-])cc3[N+](=O)[O-])n2)ccc1O
inhibition (Sf9; cell growth, MTT; 100 µM, 72 h): 91.8%

COc1cc(CNC(=O)C[C@H](C)CCC=C(C)C)ccc1OCc1cn(-c2ccc(F)cc2)nn1
growth percent (SK-MEL-5 melanoma cells; SRB; 10 µM, 48 h): 65.2%

O=C1OCC2=C1C(c1cccc(Br)c1)C1=C(N2)C(=O)c2ccccc2C1=O (stereo not shown)
early apoptotic cells (SK-LU-1 cells; annexin V/PI; 0.16 µM, 24 h): 8.48%

COc1cc(CNC(=O)C[C@H](C)CCC=C(C)C)ccc1O
growth percent (KM12; SRB; 10 µM, 48 h): 100%

COc1ccc(CN2C(=O)C(=O)c3cc(NC(C)=O)ccc32)cc1
Bcl-xL protein level (K562; western blot; 1 to 10 µM, 24 h): decreased
